Measured values of several laboratories.
Each numbered part is a random draw from the data of one study; scales do not carry over between parts. Substitutions count along the parent as printed.

Study 1 — target: CCND2, cyclin fold, Cln2 fusion (human); method: yeast growth competition, sequencing; matrix: yeast; notes: weak parent motif; reference: not given; reading: higher = stronger binding
Parent: SCAPER docking peptide (human); SNARRSLNFGGST; partner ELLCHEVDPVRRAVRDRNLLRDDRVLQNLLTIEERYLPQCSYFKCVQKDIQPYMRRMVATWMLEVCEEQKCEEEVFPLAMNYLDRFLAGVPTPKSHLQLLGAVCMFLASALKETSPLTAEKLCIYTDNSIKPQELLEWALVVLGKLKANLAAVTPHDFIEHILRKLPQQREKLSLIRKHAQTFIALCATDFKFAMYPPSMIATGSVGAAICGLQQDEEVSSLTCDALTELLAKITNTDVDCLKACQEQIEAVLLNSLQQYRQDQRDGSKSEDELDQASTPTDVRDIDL
Under “normalised enrichment score”, `SNARRSYNFGGST [L7Y]` is recorded as 0.221.
`SNARRSLNFGGSQ [T13Q]` — result for “normalised enrichment score”: 0.498.
For `SNARRSLMFGGST [N8M]`, “normalised enrichment score” read 0.558.
`VNARRSLNFGGST [S1V]` — result for “normalised enrichment score”: 0.508.
Under “normalised enrichment score”, `SNARRSLNFGGSH [T13H]` is recorded as 0.258.
`SNARCSLNFGGST [R5C]` — result for “normalised enrichment score”: 0.0776.
For `SNAVRSLNFGGST [R4V]`, “normalised enrichment score” read 0.41.
`SMARRSLNFGGST [N2M]` — result for “normalised enrichment score”: -0.11.
`SNARRHLNFGGST [S6H]`: “normalised enrichment score” 1.02.
`SNARRSLNFGGDT [S12D]`: “normalised enrichment score” 0.625.
`SNARRSLNFGGWT [S12W]`: “normalised enrichment score” -0.0372.
Under “normalised enrichment score”, `SNARRSLNFGGSA [T13A]` is recorded as 0.36.
For `SNAQRSLNFGGST [R4Q]`, “normalised enrichment score” read -0.0208.
`SNARRSLDFGGST [N8D]`: “normalised enrichment score” 0.538.
`SNARRSLNFGGSI [T13I]` — result for “normalised enrichment score”: 0.592.
For `SNARRSLNMGGST [F9M]`, “normalised enrichment score” read 0.819.
For `WNARRSLNFGGST [S1W]`, “normalised enrichment score” read 0.547.

Study 2 — method: universal PBM; molecule type: double-stranded DNA, one strand shown; matrix: in vitro; concentration: 600 nM; reading: higher = stronger binding
Target: Sal-like protein 4, full length isoform A (SALL4, Homo sapiens, UniProt Q9UJQ4, residues 1-1053)
Chain of UniProt Q9UJQ4 (whole entry, looked up): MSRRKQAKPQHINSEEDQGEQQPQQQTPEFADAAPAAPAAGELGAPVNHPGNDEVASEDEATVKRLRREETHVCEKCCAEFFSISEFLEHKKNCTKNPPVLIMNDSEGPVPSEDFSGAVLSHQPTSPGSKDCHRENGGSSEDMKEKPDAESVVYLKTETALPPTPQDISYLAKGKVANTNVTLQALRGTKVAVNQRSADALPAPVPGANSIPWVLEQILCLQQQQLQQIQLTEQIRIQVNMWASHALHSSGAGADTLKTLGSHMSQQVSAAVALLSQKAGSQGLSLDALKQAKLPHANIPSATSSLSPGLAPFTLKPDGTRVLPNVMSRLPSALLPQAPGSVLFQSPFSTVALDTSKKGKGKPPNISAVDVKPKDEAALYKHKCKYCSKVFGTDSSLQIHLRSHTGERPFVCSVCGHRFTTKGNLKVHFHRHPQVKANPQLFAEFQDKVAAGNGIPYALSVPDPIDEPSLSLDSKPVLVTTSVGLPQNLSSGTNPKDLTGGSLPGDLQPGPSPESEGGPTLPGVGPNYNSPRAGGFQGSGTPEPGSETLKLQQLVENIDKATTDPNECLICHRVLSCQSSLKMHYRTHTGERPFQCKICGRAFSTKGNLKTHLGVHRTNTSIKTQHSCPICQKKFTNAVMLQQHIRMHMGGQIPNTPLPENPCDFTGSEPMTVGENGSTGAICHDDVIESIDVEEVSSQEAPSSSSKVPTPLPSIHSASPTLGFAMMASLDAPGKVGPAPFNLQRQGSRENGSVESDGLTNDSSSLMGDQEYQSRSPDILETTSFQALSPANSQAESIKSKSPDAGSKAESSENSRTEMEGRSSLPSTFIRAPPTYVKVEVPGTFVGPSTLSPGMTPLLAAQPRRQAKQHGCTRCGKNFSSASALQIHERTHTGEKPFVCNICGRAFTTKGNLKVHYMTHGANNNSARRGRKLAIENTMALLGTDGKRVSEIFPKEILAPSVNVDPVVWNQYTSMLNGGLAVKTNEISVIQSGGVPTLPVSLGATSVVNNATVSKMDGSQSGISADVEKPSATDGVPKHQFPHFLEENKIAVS
Notes: 8-mer, flanks averaged, mean of replicates
For `AGGAGACA`, the E-score was 0.119.
`AGGTTCTG` has an E-score of -0.0866.
With `AAAGCGAT` the E-score was 0.102.
The E-score of `CGAAGGAG` is reported as -0.213.
The E-score of `ATCTCAGG` is reported as -0.0934.
`GCAACTGC` gave an E-score of -0.0951.
With `GACTTGCA` the E-score was 0.000645.
The E-score of `AGGAGTGG` is reported as -0.17.
`GCAGAAAC` gave an E-score of 0.0185.
With `CATGCGAC` the E-score was 0.00814.
`GTGTACAA` has an E-score of 0.169.
For `TGACGGAA`, the E-score was 0.0395.
For `AATAGTAG`, the E-score was 0.247.
`AGTACACA` has an E-score of 0.0958.
With `ATAGAGAT` the E-score was 0.251.
`ACATCGCC` has an E-score of -0.0875.
For `AAGTTAGC`, the E-score was 0.166.
`ATCCGATC` has an E-score of 0.0262.
The E-score of `AACACGCT` is reported as 0.00315.
`GACTATCA` has an E-score of 0.0903.
`GCCAATAA` gave an E-score of 0.236.
`CTATACGC` gave an E-score of -0.089.

Study 3 — target: UBE2J1 UBC core domain (UniProt Q9Y385); method: yeast two-hybrid; matrix: yeast; notes: mostly zero background; reference: not given; reading: higher = stronger interaction
Chain of UniProt Q9Y385 (whole entry, looked up): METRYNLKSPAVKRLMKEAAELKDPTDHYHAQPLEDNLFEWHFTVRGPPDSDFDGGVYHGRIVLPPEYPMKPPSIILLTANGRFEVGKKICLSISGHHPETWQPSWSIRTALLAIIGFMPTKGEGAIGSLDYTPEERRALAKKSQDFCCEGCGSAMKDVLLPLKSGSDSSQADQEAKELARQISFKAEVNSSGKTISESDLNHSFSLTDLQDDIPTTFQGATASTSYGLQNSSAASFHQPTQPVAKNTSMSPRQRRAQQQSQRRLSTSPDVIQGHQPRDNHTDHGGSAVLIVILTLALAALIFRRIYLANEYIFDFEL
B1: MAP3K1 RING domain (UniProt Q13233); chain NSIKDEEEQMCPICLLGMLDEESLTVCEDGCRNKLHHHCMSIWAEECRRNREPLICPLCRSKWRSHDFYS
B2: RFWD3 RING domain (UniProt Q6PCD5); chain ASMDEEEGDTCTICLEQWTNAGDHRLSALRCGHLFGYRCISTWLKGQVRKCPQCNKKARHSDIVV
B3: RBCK1 RING domain (UniProt Q9BYM8); chain SLVLNTEPAECPVCYSVLAPGEAVVLRECLHTFCRECLQGTIRNSQEAEVSCPFIDNTYSCSGKLLEREIK
B4: SH3RF1 RING domain (UniProt Q7Z6J0); chain DESALLDLLECPVCLERLDASAKVLPCQHTFCKRCLLGIVGSRNELRCPECRTLVGSGVEEL
B5: RNF133 RING domain (UniProt Q8WVZ7); chain DEEINPNGDSCVICFERYKPNDIVRILTCKHFFHKNCIDPWILPHGTCPICKCDILKVLGIQ
B6: RNF121 RING domain (UniProt Q9H920); chain MPTKHLSDSVCAVCGQQIFVDVSEEGIIENTYRLSCNHVFHEFCIRGWCIVGKKQTCPYCKEKVDLKRMFS
B7: DTX2 RING domain (UniProt Q86UW9); chain EELKVPPDEDCIICMEKLSTASGYSDVTDSKAIGSLAVGHLTKCSHAFHLLCLLAMYCNGNKDGSLQCPSCKTIYGEKTGTQ
`B1 (MAP3K1 RING domain)` — result for “lacZ reporter activity”: 0.
For `GSDDEEIPFKCFICRQSFQNPVVTKCRHYFCESCALQHFRTTPRCYVCDQQTNGVFNPA (RNF113A RING domain (UniProt O15541))`, “lacZ reporter activity” read 0.
For `B2 (RFWD3 RING domain)`, “lacZ reporter activity” read 0.
`PEDRESLKSACVVCLSSFKSCVFLECGHVCSCTECYRALPEPKKCPICRQAITRVIPLY (MUL1 RING domain (UniProt Q969V5))`: “lacZ reporter activity” 0.
For `B3 (RBCK1 RING domain)`, “lacZ reporter activity” read 0.
`NLSELTPYILCSICKGYLIDATTITECLHTFCKSCIVRHFYYSNRCPKCNIVVHQTQPLY (PCGF6 RING domain (UniProt Q9BYE7))`: “lacZ reporter activity” 0.
Under “lacZ reporter activity”, `AMYLQENGIDCPKCKFSYALARGGCMHFHCTQCRHQFCSGCYNAFYAKNKC (RNF31 RING domain (UniProt Q96EP0))` is recorded as 0.
Under “lacZ reporter activity”, `GSRLQEINDVCAICYHEFTTSARITPCNHYFHALCLRKWLYIQDTCPMCHQKVYIEDDIK (RNF139 RING domain (UniProt Q8WU17))` is recorded as 0.
Under “lacZ reporter activity”, `B4 (SH3RF1 RING domain)` is recorded as 0.
For `B5 (RNF133 RING domain)`, “lacZ reporter activity” read 0.
Under “lacZ reporter activity”, `YQNEVDDDLVCHICLQPLLQPLDTPCGHTFCYKCLRNFLQEKDFCPLDRKRLHFKLCKK (LNX2 RING domain (UniProt Q8N448))` is recorded as 0.
`B6 (RNF121 RING domain)`: “lacZ reporter activity” 0.
Under “lacZ reporter activity”, `B7 (DTX2 RING domain)` is recorded as 0.

Study 4 — target: BATF, bZIP domain (human); method: DHFR protein complementation; matrix: yeast; reference: wild-type JUN-FOS pair; reading: higher = stronger binding
Notes: single substitutions, most at no-binding floor
Parent: JUN, bZIP domain (human); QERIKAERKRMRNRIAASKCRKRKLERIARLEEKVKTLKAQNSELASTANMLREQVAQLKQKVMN; partner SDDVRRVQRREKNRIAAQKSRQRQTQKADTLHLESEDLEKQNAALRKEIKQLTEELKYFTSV
`E33C` gave a binding fitness of -0.204 natural log.
With `Q58H` the binding fitness was -0.0293 natural log.
For `E54W`, the binding fitness was -0.341 natural log.
`R53I` gave a binding fitness of -0.657 natural log.
`M51Q` has a binding fitness of 0.0477 natural log.
`I28S` gave a binding fitness of -0.07 natural log.
`M51W` has a binding fitness of -0.08 natural log.
The binding fitness of `A40I` is reported as -0.0293 natural log.
For `K39S`, the binding fitness was -0.171 natural log.
The binding fitness of `L31I` is reported as -0.0728 natural log.
The binding fitness of `L52E` is reported as -1.46 natural log.
With `A46F` the binding fitness was -0.113 natural log.
`I28H` has a binding fitness of 0.00959 natural log.
With `N42C` the binding fitness was -0.494 natural log.
For `L38N`, the binding fitness was -0.907 natural log.
`T48H` gave a binding fitness of 0.009 natural log.
`V56F` has a binding fitness of -0.675 natural log.

Study 5 — method: DHFR PCA, deep sequencing; matrix: yeast; with: (+)-ABA 2500 µM; reference: wild-type fitted maximum; reading: higher = stronger binding
Target: ABI1, truncated, D143A, DHFR fusion (Arabidopsis thaliana)
Notes: methotrexate growth selection, single substitutions
Parent: PYL1, truncated, DHFR fusion (Arabidopsis thaliana); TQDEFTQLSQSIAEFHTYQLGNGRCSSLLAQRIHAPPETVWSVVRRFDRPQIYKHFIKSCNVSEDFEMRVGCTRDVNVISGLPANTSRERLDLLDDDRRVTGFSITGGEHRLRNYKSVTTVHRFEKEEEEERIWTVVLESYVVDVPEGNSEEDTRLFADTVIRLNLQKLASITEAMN; partner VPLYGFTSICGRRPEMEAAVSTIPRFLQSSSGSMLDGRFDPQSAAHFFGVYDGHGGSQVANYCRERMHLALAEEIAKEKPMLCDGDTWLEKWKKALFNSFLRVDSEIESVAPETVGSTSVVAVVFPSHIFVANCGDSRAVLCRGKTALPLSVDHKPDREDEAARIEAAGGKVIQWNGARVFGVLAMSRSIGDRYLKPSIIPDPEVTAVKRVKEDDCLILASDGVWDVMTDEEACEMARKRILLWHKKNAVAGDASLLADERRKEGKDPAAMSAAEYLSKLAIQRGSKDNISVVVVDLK
`A158G` — result for “relative binding score”: 89.5%.
For `E152I`, “relative binding score” read 97%.
`R88Y`: “relative binding score” 99.4%.
`H110R` — result for “relative binding score”: 29.4%.
For `L29V`, “relative binding score” read 99.5%.
For `D153A`, “relative binding score” read 74%.
Under “relative binding score”, `D96H` is recorded as 88.8%.
Under “relative binding score”, `Y141F` is recorded as 92.2%.
For `T106H`, “relative binding score” read 98.5%.
`V136F` — result for “relative binding score”: 109%.
`R98F` — result for “relative binding score”: 100%.
`N22M`: “relative binding score” 100%.
`R163M`: “relative binding score” 86.3%.
Under “relative binding score”, `I57Y` is recorded as 77%.
Under “relative binding score”, `L164F` is recorded as 97.7%.
For `T173E`, “relative binding score” read 53.2%.
For `D97M`, “relative binding score” read 104%.
`Q167V` — result for “relative binding score”: 94.8%.
Under “relative binding score”, `S27R` is recorded as 93.7%.
`Q51D`: “relative binding score” 101%.

For quick reference, copied from above (study 4):
The binding fitness of `L52E` is reported as -1.46 natural log.
The binding fitness of `L31I` is reported as -0.0728 natural log.
The binding fitness of `A40I` is reported as -0.0293 natural log.
`M51Q` has a binding fitness of 0.0477 natural log.
`V56F` has a binding fitness of -0.675 natural log.
